Measurements of several laboratories.
Each numbered part is a random draw from the data of one study; scales do not carry over between parts. Positions count from the first letter of the parent shown.

Block 1 — technique: protein binding microarray; molecule type: double-stranded DNA, one strand shown; sample: in vitro; concentration: not given; baseline: not given; reading: higher = stronger binding
Target: Histone acetyltransferase KAT6A, winged helix 1, GST fusion (KAT6A, Homo sapiens, UniProt Q92794, residues 1-85)
Setting: 8-mer, flanks averaged, mean of 2 arrays, mostly near background
Construct (chain): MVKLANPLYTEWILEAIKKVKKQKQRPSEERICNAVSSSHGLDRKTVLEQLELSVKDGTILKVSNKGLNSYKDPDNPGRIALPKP
Sequence	E-score
AAGACTCG	0.0193
GACTCGCC	0.119
AGTATCCC	-0.00556
CCCTCATC	-0.176
ACAGCGTA	0.0891
GAGCTCGC	0.0786
CCGAACAA	-0.0049
CACACCTC	-0.0354
AAAGGATG	-0.169
CGTTAGCC	0.163
CGTACAAA	0.0971
AATCCTGC	-0.104
GTTCGCAA	0.0724
CTATAGAG	-0.0867
GCCACCCC	0.0623
AGAATTAG	-0.226

Block 2 — technique: RNA Bind-n-Seq; molecule type: RNA; sample: in vitro; concentration: 365 nM; baseline: no-protein control; reading: higher = stronger binding
Target: RNA binding protein fox-1 homolog 2, RRM domain, GST-SBP tag (RBFOX2, Homo sapiens, UniProt O43251-10, residues 100-194)
Setting: natural RNA segment, single round, ends assumed
Target sequence (chain): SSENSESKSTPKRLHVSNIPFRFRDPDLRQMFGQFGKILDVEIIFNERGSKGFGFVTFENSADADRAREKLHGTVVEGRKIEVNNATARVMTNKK
Sequence	RBNS enrichment (R)
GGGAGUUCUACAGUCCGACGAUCUUGAAUGUCAUAGAGCAUAUUUUCUCUUUUUGCCUGUUUGCACUCUGCCAUUGCACUUUGUAAAUCUGUAGAAUCGCUCGUAUAAAAUUUCUAUUAAAGAUUCUAGUGAAUGGAAUUCUCGGGUGCCAA	4.43
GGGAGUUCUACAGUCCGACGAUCCACUCUGCUCAAGAGACGGAUGCACUCCUGCGCCCCGGUCUUCGGCCUGGACCCCACACGUUCAUAGUCUGUCCAGACACUGGGUGGCGGUCCUAAUGCACAGUGACCAAUGGAAUUCUCGGGUGCCAA	0.284
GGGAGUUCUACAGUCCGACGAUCUGUCUCUAUGAGACAGCUAGUCCAUUACUGUUACUAUUGUAUUACUGUCAUGUUCUUUACAUGUCACUUGUCAUUUUUAUUUGUGAAAAAUAAAAAGAUAAUUUAUUCACUGGAAUUCUCGGGUGCCAA	0.365
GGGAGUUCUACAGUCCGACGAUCCUCAGUGAAGGCCCAUGAAGGAAAUUGGGACUAGUUUAUAGGAGAACGUAUCAAUACAGUUUAUAAAGCCAAGAAUUGCUAUGAUUUAAGACUAAGAUCUGUCUUUUUGGUGGAAUUCUCGGGUGCCAA	0.62
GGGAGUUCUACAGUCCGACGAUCGGCAGGAAGAUACAAGUCUUUUUAAAGUUUACUGAUGCUUAACUCUGUGGGCUCGUAGUCCUCUGAAAGUGGUUGUUUUCCUAUGCACAGUGAGCUCAGAAAUAAAAACUUGGAAUUCUCGGGUGCCAA	0.366
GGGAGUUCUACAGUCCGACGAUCAAGAGAUGGAUGUCGUGAUGCCUCGUUGCCUUAAUGAGAGCUGAGUCAGCUGUCCUUCACCCUGGGAAAGUCCAUGCCAGCUGUGGACUGCUGGGAGCCAUGUUUGUCACUGGAAUUCUCGGGUGCCAA	0.288
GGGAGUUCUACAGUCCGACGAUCUUUGAGCUGUAGAGACUCAUGCUGGAUUCAAACUGAGAACCCUGGAAGGAAGGCCAGGCUAGUUUAGGGCUCAGCGCGUCUCACCAGAGCCCUUCCAUACUCUGUGACUCUGGAAUUCUCGGGUGCCAA	0.43
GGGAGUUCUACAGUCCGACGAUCGGUGGGAGCAGUGUCACUGUGCUAGCAAUAGUUGGCUUCUCCCCUGUCAGUGGAAACCCCACUUCUGCCCGGCCCUUGAGCUUCUUGCCCACUGUCUCCCCAUCCUUCCAUGGAAUUCUCGGGUGCCAA	0.515
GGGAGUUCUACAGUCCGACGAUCUAUCAUUGUGAAAACUCAUGUUGUAUUACUUUUUAUUAAUUGUAAUUUGGGAUACAUAUAAGUUAAUCUUAUCAAAUAAUAUUUAAAAUUGUCAAUCAAUUUUACCAAUAUGGAAUUCUCGGGUGCCAA	0.762
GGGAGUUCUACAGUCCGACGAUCCAAAAACUUAUGCACCAACUGUGAAUAGCUGCCGCUUGUGCAGAUCCCCAGGGGCUCCCGGUGACACACUGGAAAUGACUGUUCCAGGGGACAGAAAAUACUCAUCUGUCUGGAAUUCUCGGGUGCCAA	0.4
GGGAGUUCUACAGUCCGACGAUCUAGCUUUGGUUUAAUAUGCCACUGCUUUGUCUUUCUGUUACACAUACAGUUUUGAUUUAUUUACAAUAUAUGCUGUGCCAUUUUGAUUUUUAUAUUGUUUGGUUGGUUGAUGGAAUUCUCGGGUGCCAA	0.581
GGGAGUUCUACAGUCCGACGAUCCAGCCAGGAGCUCCCUGGCACCGCAGGACCUCGUGGUACUCUUGCCUUAGAUUUUACACACACUCCACAGCCAAGCACUGCCACGGUCCUCCAGGACCUGGGAAGCAAAGUGGAAUUCUCGGGUGCCAA	0.222

Block 3 — technique: DHFR PCA, deep sequencing; sample: yeast; with: (+)-ABA 0.39 µM; baseline: wild-type fitted maximum; reading: higher = stronger binding
Target: ABI1, truncated, D143A, DHFR fusion (Arabidopsis thaliana)
Setting: methotrexate growth selection, single substitutions
Parent: PYL1, truncated, DHFR fusion (Arabidopsis thaliana); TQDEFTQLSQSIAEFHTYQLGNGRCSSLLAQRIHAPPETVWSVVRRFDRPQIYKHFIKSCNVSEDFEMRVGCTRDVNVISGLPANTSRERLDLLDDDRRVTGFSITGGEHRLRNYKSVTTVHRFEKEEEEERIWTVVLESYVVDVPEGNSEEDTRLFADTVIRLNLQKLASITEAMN
Change	relative binding score
Q7V	42%
R69Q	38.4%
E89A	-11.1%
E64H	42.1%
I133T	55.5%
G21N	31.2%
E174I	-9.51%
D3H	37.2%
S9W	26.3%
I33A	-0.879%
L20D	43.1%
L166R	7.76%
R69G	25.5%
L169K	-18.5%
A35E	9.19%
S140P	7.57%
I172W	-13.3%
L28A	1.48%
C60V	48.2%

Block 4 — target: UBE2V2 UBC core domain (UniProt Q15819); technique: yeast two-hybrid; sample: yeast; setting: mostly zero background; baseline: not given; reading: higher = stronger interaction
B1: TRIM11 RING domain (UniProt Q96F44); chain LSTNLQEEATCAICLDYFTDPVMTDCGHNFCRECIRRCWGQPEGPYACPECRELSPQRNLRP
B2: RNF6 RING domain (UniProt Q9Y252); chain NSIDSELGKICSVCISDYVTGNKLRQLPCMHEFHIHCIDRWLSENCTCPICRQPVLGSNIAN
B3: RNF186 RING domain (UniProt Q9NXI6); chain HSGSTECDLECLVCREPYSCPRLPKLLACQHAFCAICLKLLLCVQDNTWSITCPLCRKVTAVPGGLI
B4: ZMYND11 RING domain (UniProt Q15326); chain DEIDWETENHDWYCFECHLPGEVLICDLCFRVYHSKCLSDEFRLRDSSSPWQCPVCRSIKKKNTNKQEM
B5: TRIM41 RING domain (UniProt Q8WV44); chain PVQTLQEEAVCAICLDYFTDPVSIGCGHNFCRVCVTQLWGGEDEEDRDELDREEEEEDGEEE
B6: RNF182 RING domain (UniProt Q8N6D2); chain AESQASDELECKICYNRYNLKQRKPKVLECCHRVCAKCLYKIIDFGDSPQGVIVCPFCRFETCLPDDEV
B7: ZNRF4 RING domain (UniProt Q8WWF5); chain VRTFTWHNDLCAICLDEYEEGDQLKILPCSHTYHCKCIDPWFSQAPRRSCPVCKQSVAATEDSF
B8: RNF103 RING domain (UniProt O00237); chain WPADMLHCTECVVCLENFENGCLLMGLPCGHVFHQNCIVMWLAGGRHCCPVCRWPSYKKKQPY
B9: MKRN3 RING domain (UniProt Q13064); chain FAVQRGMDKVCGICMEVVYEKANPNDRRFGILSNCNHSFCIRCIRRWRSARQFENRIVKSCPQCRVTSELVIPSE
Target sequence (chain): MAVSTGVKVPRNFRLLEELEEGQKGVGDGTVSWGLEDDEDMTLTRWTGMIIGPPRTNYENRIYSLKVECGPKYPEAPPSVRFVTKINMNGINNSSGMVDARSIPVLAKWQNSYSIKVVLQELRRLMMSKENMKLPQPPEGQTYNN
Molecule	lacZ reporter activity
LVKDFNPYITCYICKGYLIKPTTVTECLHTFCKTCIVQHFEDSNDCPRCGNQVHETNPLE (PCGF5 RING domain (UniProt Q86SE9))	0
DDVLTKDAGECVICLEELLQGDTIARLPCLCIYHKSCIDSWFEVNRSCPEHPAD (ZNRF1 RING domain (UniProt Q8ND25))	0
LEALSSDFLACKICLEQLRAPKTLPCLHTYCQDCLAQLADGGRVRCPECRETVPVPPEGV (TRIM56 RING domain (UniProt Q9BRZ2))	0
B1 (TRIM11 RING domain)	0
B2 (RNF6 RING domain)	0
B3 (RNF186 RING domain)	0
B4 (ZMYND11 RING domain)	0
B5 (TRIM41 RING domain)	0
B6 (RNF182 RING domain)	0
B7 (ZNRF4 RING domain)	0
B8 (RNF103 RING domain)	0
B9 (MKRN3 RING domain)	0

Block 5 — target: CCNB1, cyclin fold, Cln2 fusion (human); technique: yeast growth competition, sequencing; sample: yeast; setting: strong parent motif; baseline: not given; reading: higher = stronger binding
Parent: BRCA2 docking peptide (human); PSIKRNLLNEFDR; partner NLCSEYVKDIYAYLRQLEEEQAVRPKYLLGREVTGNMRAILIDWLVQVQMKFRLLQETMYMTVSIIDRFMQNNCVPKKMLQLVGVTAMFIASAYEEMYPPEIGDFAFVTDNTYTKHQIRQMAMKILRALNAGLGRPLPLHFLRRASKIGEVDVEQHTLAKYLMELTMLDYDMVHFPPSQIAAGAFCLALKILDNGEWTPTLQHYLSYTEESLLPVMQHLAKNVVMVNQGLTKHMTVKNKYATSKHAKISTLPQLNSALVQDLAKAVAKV
Change	normalised enrichment score
PMIKRNLLNEFDR [S2M]	1.82
PSIKRNLLNENDR [F11N]	-1.02
PSIKRNLLNNFDR [E10N]	0.122
PSINRNLLNEFDR [K4N]	2.45
PSIKRNLLNEFDE [R13E]	4.56
PSIKHNLLNEFDR [R5H]	0.222
PSIKRNRLNEFDR [L7R]	0.328
PSIKRNLLNEFDG [R13G]	2.84
PSIKRELLNEFDR [N6E]	0.576
PSIRRNLLNEFDR [K4R]	3.1
PSIKRNELNEFDR [L7E]	-0.0226
PSIKRNLLNEMDR [F11M]	0.524
PSIKRNLLNEFRR [D12R]	1.01
PSIKNNLLNEFDR [R5N]	-0.18
PSIKRNLLNEFDM [R13M]	2.81
PSIKRNLLTEFDR [N9T]	2.16
PSITRNLLNEFDR [K4T]	1.71
PSIERNLLNEFDR [K4E]	2.74
PSIKRNLLNCFDR [E10C]	1.52
PSIVRNLLNEFDR [K4V]	4.02
PSIKRNLLNEWDR [F11W]	0.0277
PSIKRNLLNECDR [F11C]	0.137
PSIKRNLLNWFDR [E10W]	0.0407
PSIKRNLLNMFDR [E10M]	-0.285

A few entries again (block 2):
Sequence	RBNS enrichment (R)
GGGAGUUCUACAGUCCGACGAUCCACUCUGCUCAAGAGACGGAUGCACUCCUGCGCCCCGGUCUUCGGCCUGGACCCCACACGUUCAUAGUCUGUCCAGACACUGGGUGGCGGUCCUAAUGCACAGUGACCAAUGGAAUUCUCGGGUGCCAA	0.284
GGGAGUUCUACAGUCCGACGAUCUGUCUCUAUGAGACAGCUAGUCCAUUACUGUUACUAUUGUAUUACUGUCAUGUUCUUUACAUGUCACUUGUCAUUUUUAUUUGUGAAAAAUAAAAAGAUAAUUUAUUCACUGGAAUUCUCGGGUGCCAA	0.365
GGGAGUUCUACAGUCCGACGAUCCUCAGUGAAGGCCCAUGAAGGAAAUUGGGACUAGUUUAUAGGAGAACGUAUCAAUACAGUUUAUAAAGCCAAGAAUUGCUAUGAUUUAAGACUAAGAUCUGUCUUUUUGGUGGAAUUCUCGGGUGCCAA	0.62
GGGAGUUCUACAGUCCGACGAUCGGCAGGAAGAUACAAGUCUUUUUAAAGUUUACUGAUGCUUAACUCUGUGGGCUCGUAGUCCUCUGAAAGUGGUUGUUUUCCUAUGCACAGUGAGCUCAGAAAUAAAAACUUGGAAUUCUCGGGUGCCAA	0.366
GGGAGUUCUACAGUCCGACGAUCAAGAGAUGGAUGUCGUGAUGCCUCGUUGCCUUAAUGAGAGCUGAGUCAGCUGUCCUUCACCCUGGGAAAGUCCAUGCCAGCUGUGGACUGCUGGGAGCCAUGUUUGUCACUGGAAUUCUCGGGUGCCAA	0.288
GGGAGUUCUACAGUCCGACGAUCUUUGAGCUGUAGAGACUCAUGCUGGAUUCAAACUGAGAACCCUGGAAGGAAGGCCAGGCUAGUUUAGGGCUCAGCGCGUCUCACCAGAGCCCUUCCAUACUCUGUGACUCUGGAAUUCUCGGGUGCCAA	0.43
